Measurements collected from several papers.
Numbered parts are unrelated; each lists some results of a single study.

Series 1
Target: RNA binding protein fox-1 homolog 2, RRM domain, GST-SBP tag (RBFOX2, Homo sapiens, UniProt O43251-10, residues 100-194)
Technique: RNA Bind-n-Seq
Form: RNA
Matrix: in vitro
Tested at: 365 nM
Notes: natural RNA segment, single round, ends assumed
Baseline: no-protein control
Reading: higher = stronger binding
Construct (chain): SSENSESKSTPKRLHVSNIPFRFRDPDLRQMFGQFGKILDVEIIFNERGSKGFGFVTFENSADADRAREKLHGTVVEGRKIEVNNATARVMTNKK
| Strand | RBNS enrichment (R) |
| --- | --- |
| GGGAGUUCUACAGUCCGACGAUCCGGGCCGGCGGGGGUGGGGGGAACGUGGGGGAACCUGUGUUUCACGUGACUCAGCAGUGCCCGCCGCCGUCACCAGCUAUGCAUUCACUCCGUUUCCAGUGAGCAGAUGUUGGAAUUCUCGGGUGCCAA | 0.583 |
| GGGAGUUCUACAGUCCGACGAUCGUUCUCCAGAGUUCACCUUUCCCUUUUCCUUGAGUUGUGCUGAAUGCCCCACCCCAGCUCUCUUUCCCUUCUGGGUGUCUUUGCUGGGAGGGGGCUGUGUUGUGAGCCCUUGGAAUUCUCGGGUGCCAA | 0.122 |
| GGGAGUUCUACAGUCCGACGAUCCAGGUGACAUUUGUUGACACCAUUCUCAGAGGUGUUGAAGAUUUAUCAUCUUGAAUCCUCCACAAAUACAGAUACAGUCCCAAGGGAGGUAGUCGUAGAAAUGGAAGACGUGGAAUUCUCGGGUGCCAA | 0.266 |
| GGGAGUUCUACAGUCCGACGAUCUACCAUUUUGAGGGGAUUUAUACAUAUUUUUAGAUAAAAUUAAAUGCUCUUAUUUUUCCAACAGCUAAACUACUCUUAGUUGAACAGUGUGCCCUAGCUUUUCUUGCAACUGGAAUUCUCGGGUGCCAA | 1.57 |
| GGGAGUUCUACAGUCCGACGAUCCGUGUGAGUCUCAGGCCAGGCCCUUAUUUCUGAAUGUGUUUGAAUUUUAAGUUUGCCUUAUCAGAUAUCUGAGCUGUGCGACAAGUAAGUAGCUCUGGGGCCAUGUCUUGUGGAAUUCUCGGGUGCCAA | 0.997 |
| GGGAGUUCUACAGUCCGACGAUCUCAAAUACCAUAAAAGUGUUUGCUACAAUAAAUAAAAUUCUUGUGACUUUACUACCAAGUCAUCUCUGCACUCAUUGAAAUUCAGUCAUUGGUAGUGGAGGGCUGGAAUUUGGAAUUCUCGGGUGCCAA | 0.413 |
| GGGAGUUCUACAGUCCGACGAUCGUAUUUGUCUCCCUCACUAGAUUAUACGCUCCUUGUGGGCAGGGACUGUGUCUUUUUUCAUCUUUGUAUCUUUCAUGCACCUAGCAUAGUGCUUUGCACAUAGUAGUCACUGGAAUUCUCGGGUGCCAA | 1.43 |
| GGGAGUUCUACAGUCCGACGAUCAAAAUAUUUUCUGCUUUUUUGACUUGCAUUUGAGAGUUUCUUGUUUCAGUAAAAAAAGAAAAGAAAAGAAAAAUAUCCGUUUUGGAAAAAUAACUUAAAUGCCCCUCCCCUGGAAUUCUCGGGUGCCAA | 0.561 |

Series 2
Target: Histone acetyltransferase KAT6A, winged helix 2, GST fusion (KAT6A, Homo sapiens, UniProt Q92794, residues 85-181)
Technique: protein binding microarray
Form: double-stranded DNA, one strand shown
Matrix: in vitro
Tested at: not given
Notes: 8-mer, flanks averaged, mean of 2 arrays, mostly near background
Baseline: not given
Reading: higher = stronger binding
Residues (chain): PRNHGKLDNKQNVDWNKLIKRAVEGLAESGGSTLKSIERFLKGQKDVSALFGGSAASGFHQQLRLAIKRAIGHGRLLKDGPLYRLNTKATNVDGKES
| Strand | E-score |
| --- | --- |
| AGCGACAT | -0.0634 |
| AATACAAT | 0.0439 |
| CATGCTCG | 0.0925 |
| TAAGTGGA | 0.0827 |
| TCTCCGCA | 0.0887 |
| CCTAGAAC | 0.0328 |
| GCTTCCCA | 0.0617 |
| GGACAGAC | 0.103 |
| ACTCACTA | 0.0194 |
| CGGGCGAG | 0.169 |
| GGTTCAGA | 0.0851 |
| GCGGCGCC | 0.321 |
| ATTCAAAC | -0.0541 |
| ACTACGTG | -0.224 |
| CCCTAACC | -0.133 |
| AAACCCAC | 0.11 |
| CTTCCAAG | 0.015 |
| ACGTACCC | -0.129 |
| CATTCCCC | 0.061 |
| AACAAGAA | 0.041 |

Series 3
Target: RING finger protein unkempt homolog, zinc fingers 1-6, GST-SBP tag (UNK, Homo sapiens, UniProt Q9C0B0, residues 30-357)
Technique: RNA Bind-n-Seq
Form: RNA
Matrix: in vitro
Tested at: not given
Notes: RNA with constant flanks, human and mouse sites, ends assumed
Baseline: input RNA pool
Reading: higher = stronger binding
Construct (chain): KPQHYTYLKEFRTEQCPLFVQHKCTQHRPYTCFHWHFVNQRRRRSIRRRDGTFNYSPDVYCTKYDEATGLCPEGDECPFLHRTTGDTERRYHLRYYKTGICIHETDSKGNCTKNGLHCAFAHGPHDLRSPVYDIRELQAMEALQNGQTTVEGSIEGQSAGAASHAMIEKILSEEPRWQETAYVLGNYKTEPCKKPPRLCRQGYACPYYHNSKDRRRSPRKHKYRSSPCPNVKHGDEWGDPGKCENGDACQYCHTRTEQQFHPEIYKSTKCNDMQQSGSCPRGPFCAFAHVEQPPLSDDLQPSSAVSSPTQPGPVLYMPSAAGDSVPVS
| Strand | bound/input enrichment [ratio] |
| --- | --- |
| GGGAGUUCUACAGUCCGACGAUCAAUGUGGAAACAGUAGAAUAUAAGAACAUUUGUUUCACAGUAUGGGAUGUUGGUGGUCAAGAUAAAAUUAGGCCUCUCUGGAGGCAUUACUUCCAGAAUACCCAGGGUCUCAUUUUUGUGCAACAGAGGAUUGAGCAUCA | 1.15 |
| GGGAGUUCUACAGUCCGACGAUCCGCUUGGAUGAGGCGGGUGUCACAGAUGAAGUGCUAGAUUCUGCCAUGCAAGCCUUCCUUCUGGAGGUCAUUGUUAAACAUGGGGAGCCGGCACCUUAUUUAUGUAACAAAGAUCCGUUUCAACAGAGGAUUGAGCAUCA | 0.0835 |
| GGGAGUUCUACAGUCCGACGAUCUACAUGUUUUCUCUUGUGCAUCAAUUUAAAUGUUACAACCAUGUAAACUACUUCUCUUGUUAGAUAGAUUUUCACCUAGACUUUUUUUCCCAAAUCAGAAAAAAAAUACACACUAAAUAACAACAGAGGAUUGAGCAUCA | 0.987 |
| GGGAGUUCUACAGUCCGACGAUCUACAUGAUGAAAGCGUUCGACCUCAUCGUGGACCGACCCGUGACCCUCGUGAGAGAAUUUAUAGAGCGGCAGCACGCAAAGAACAGGUAUUACUACUACCACCGGCAGUACCGCCGCGUGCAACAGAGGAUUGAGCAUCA | 0.129 |
| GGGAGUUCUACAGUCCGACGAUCGUGAGCUUGCGGGGAAUUGGCAGUCCCAGCACAGAUGCCAGUGCCAGUGAUGUCCACGGCAAUUUCGCCUUCGAGGGCAUUGGAGAUGAGGAUCUGUAAUCUCCACUGCUUGGAUGUCUGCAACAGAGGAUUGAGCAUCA | 0.087 |
| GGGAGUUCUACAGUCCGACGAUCAUGGGCAGAAAGGCACAGGUUGUGCUGUGCUUUAGCCUGCAUUUGUCUAUCCAAACUUGCUAGUUUUAUCGGCUUUUUACUUUUUUGUACUUUAUUUUUCCUAUAAAGUCCUUUUCAGAACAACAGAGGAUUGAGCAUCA | 0.763 |
| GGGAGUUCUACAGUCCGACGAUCGUACAGAGUGUCAUUGACAGCCAAGGCAAAAACUGUGCCUCACUUCUGAGGGUCGAACCCUUUGUAUGUGCCCAGUGCCGCACAGAUUUCACCCCUCACUGGAAGCAAGAAAAGAAUGGUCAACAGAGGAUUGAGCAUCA | 0.194 |
| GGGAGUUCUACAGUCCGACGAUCUUUCGACAGUUUAUAUUGGUCAUGAAUGCAUUAGAUAACAGAGCUGCACGAAACCACGUGAAUAGGAUGUGUCUGGCCGCUGAUGUGCCUCUCAUUGAGAGCGGGACUGCUGGGUAUCUCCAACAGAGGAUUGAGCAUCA | 0.308 |

Series 4
Target: Sal-like protein 4, full length isoform B (SALL4, Homo sapiens, UniProt Q9UJQ4-2, residues 1-616)
Technique: universal PBM
Form: double-stranded DNA, one strand shown
Matrix: in vitro
Tested at: not given
Notes: 8-mer, flanks averaged, mean of replicates
Reading: higher = stronger binding
Construct (chain): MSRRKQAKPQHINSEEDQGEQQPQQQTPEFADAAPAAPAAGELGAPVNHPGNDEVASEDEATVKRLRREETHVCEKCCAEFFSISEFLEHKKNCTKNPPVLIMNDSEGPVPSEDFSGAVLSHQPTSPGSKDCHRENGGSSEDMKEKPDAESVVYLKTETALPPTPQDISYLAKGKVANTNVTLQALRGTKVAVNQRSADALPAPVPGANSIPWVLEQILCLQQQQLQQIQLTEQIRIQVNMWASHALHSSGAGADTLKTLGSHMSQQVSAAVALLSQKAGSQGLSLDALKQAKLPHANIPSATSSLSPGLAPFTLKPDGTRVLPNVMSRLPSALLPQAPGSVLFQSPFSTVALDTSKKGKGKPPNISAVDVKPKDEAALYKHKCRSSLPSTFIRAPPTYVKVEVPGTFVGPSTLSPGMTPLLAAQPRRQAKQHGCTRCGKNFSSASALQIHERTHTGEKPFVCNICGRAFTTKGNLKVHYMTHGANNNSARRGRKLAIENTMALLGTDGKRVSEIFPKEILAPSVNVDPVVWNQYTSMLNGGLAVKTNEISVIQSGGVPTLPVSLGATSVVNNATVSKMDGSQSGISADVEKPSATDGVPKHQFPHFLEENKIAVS
| Strand | E-score |
| --- | --- |
| CCCAATCC | -0.218 |
| GATCGATC | -0.251 |
| TCGCGCCA | -0.18 |
| GATTCTAC | -0.0879 |
| ATACACCG | -0.0539 |
| ACTACGAG | -0.037 |
| ACGTCTCT | -0.0394 |
| ATTGAACA | 0.168 |
| TACATCTA | 0.23 |
| AACGAGCG | 0.00197 |
| AATCGCGG | -0.147 |
| CATTCTAG | 0.175 |
| GTACCGGA | -0.21 |
| AAATAGTG | 0.221 |
| TGCGGCCA | -0.265 |
| CCATCCGG | -0.309 |
| GAGCCAGC | -0.214 |
| CAGGGCCC | -0.391 |
| CGTCAAGA | -0.151 |
| GACCTGTA | -0.0375 |

Some of these lines once more (series 4):
| Strand | E-score |
| --- | --- |
| GACCTGTA | -0.0375 |
| ATTGAACA | 0.168 |
| GATTCTAC | -0.0879 |
| AACGAGCG | 0.00197 |
| ACTACGAG | -0.037 |
| ACGTCTCT | -0.0394 |
| GATCGATC | -0.251 |
